{"data": "Measurements gathered from unrelated publications", "note": "Each line is one published result; not all experiments were run side by side. ± gives the spread as reported."}
{"Structure (SMILES)": "CCOC(=O)[C@@H]1Cc2c(cc([N+](=O)[O-])cc2[N+](=O)[O-])[C@H](O)[C@]12C(=O)Nc1ccc(Br)cc12", "system": "rat", "setting": "iv, 7.5 mg/kg", "AUC(0-t)": "21100 ng·h/mL"}
{"Structure (SMILES)": "O=P1(NCCCl)NCCCO1 (stereo not drawn)", "system": "rat, plasma", "setting": "intravenous, 10 mg/kg CP, added: ketoconazole 10 mg/kg oral 50 min before", "AUC(0-t)": "566 ± 158 ng·h/mL"}
{"Structure (SMILES)": "C[C@@H]1CC[C@H]2[C@@H](C)CO[C@@H]3O[C@@]4(C)CC[C@@H]1[C@]32OO4", "system": "male Sprague-Dawley rat, plasma", "setting": "oral, 100 mg/kg", "AUC(0-t)": "3010 ng·h/mL"}
{"Structure (SMILES)": "CC[C@H](C)C(=O)N1CCC(NC(=O)Nc2ccc(OC(F)(F)F)c(F)c2)CC1", "system": "human, plasma", "setting": "oral, 24 mg, single dose, healthy volunteers", "AUC(0-t)": "9030 ng·h/mL"}
{"Structure (SMILES)": "O=c1cc(-c2ccccc2)oc2c(Br)c(O)c(O)c(O)c12", "system": "C57BL/6 mouse, plasma", "setting": "intravenous, 10 mg/kg, single dose", "AUC(0-t)": "2860 ng·h/mL"}
{"Structure (SMILES)": "COc1ccc(F)cc1S(=O)(=O)Nc1cnc2c(c1)C(=O)NCCO2", "system": "C57BL/6J mice, plasma", "setting": "oral, 0.3 mg/kg", "AUC(0-t)": "119 ± 27 ng‧h/mL"}
{"Structure (SMILES)": "CC(C)[C@H]1NC(=O)C[C@H]2/C=C/CCSSC[C@@H](NC1=O)C(=O)N[C@H](Cc1cccc3ccccc13)C(=O)NCC(=O)O2", "system": "BALB/cAJcl-nu/nu mice, blood", "setting": "oral, 24 mg/kg", "AUC(0-t)": "0.272 to 2.22 ng·h/mL"}
{"Structure (SMILES)": "O=C(CN1CCN(c2cc3c(cc2F)c(=O)c(C(=O)O)cn3C2CC2)CC1)Nc1ccc(Cl)cc1", "system": "BALB/c mice, female, plasma", "setting": "iv, 3.75 mg/kg", "AUC(0-t)": "92400 ng·h/mL"}
{"Structure (SMILES)": "CSCC[C@H](NC(=O)CNC(=O)[C@H](CC(=O)O)NC(=O)[C@@H](NC(=O)[C@@H](NC(=O)[C@@H](NC(=O)CNC(=O)[C@H](CCC(N)=O)NC(=O)[C@H](CCSC)NC(=O)[C@H](CC(=O)O)NC(=O)[C@H](C)NC(=O)[C@H](C)NC(=O)[C@@H](NC(=O)[C@H](CO)NC(=O)[C@@H](N)CC(C)C)[C@@H](C)O)C(C)C)C(C)C)[C@@H](C)O)C(=O)N[C@@H](C)C(=O)N[C@@H](CO)C(=O)NCC(=O)N[C@@H](CC(C)C)C(=O)N[C@@H](CC(=O)O)C(=O)N[C@@H](CCCCN)C(=O)N[C@@H](CC(=O)O)C(=O)N[C@@H](Cc1ccc(O)cc1)C(=O)N[C@@H](CC(C)C)C(=O)N[C@@H](CCCCN)C(=O)N1CCC[C@H]1C(=O)N[C@@H](CC(=O)O)C(=O)N[C@@H](CC(=O)O)C(=O)O", "system": "human, serum", "setting": "intravenous, 2.5 mg/kg, patients, infusion", "AUC(0-t)": "1930 ng·h/mL"}
